Measured values gathered from unrelated publications.
A part holds a random share of what one study measured. Substitutions count along the parent as printed.

Set 1
Target: Fragile X messenger ribonucleoprotein 1, C-terminal low-complexity region (Fmr1, Mus musculus, UniProt P35922)
Technique: RNA Bind-n-Seq
Molecule type: RNA
Medium: in vitro
Concentration: 200 nM
Setting: whole 134-nt RNA, ends assumed
With: 150 mM LiCl
Relative to: input library
Direction: higher = stronger binding
Measurement: log2 enrichment
Each molecule: 7-deaza-guanosine replaces G
Constant ends, left off below: GGGAGUUCUACAGUCCGACGAUC … UGGAAUUCUCGGGUGUCAAGG
CUGUGCUACACAUCGUAUGUACCGAAUCGGGGUUUGGGGUUUUUUUGGGGAAAAAAAGGGGAAAGUAUUAUGUUACGCCGUUCGGAUCUG: -0.576
UGGCCCUGGUGGCAUGCGGGGAGGAAGAGGUGGCCUCAUGGAUCGUGAUGGUCCCGGUGGAAUGUUCAGAGGUGGCCGUGGUGGAGACAG: -0.605
UGGGAGGUGGAUUUUGUUUAUUUUUUUAGCUCAUUUUCAGGGGUGGGAAUUUUUUUUUAAUAUGUGUCAUGAAUAAAGUUGUUUUUGAAA: 1.11
UUUCUGUGUGCUUAGGUGCCCGAGCUACUGAGGGUCUAAGUCCGGGCAGCCGAAGAGUGUGGUAGGUAACGGUCCUCAGCGCAAGGGUCA: 0.48
CAAGUCCUGUGCUACACAUCGUAUGUACCGAAUCGGGUUUGGUUUGGGUUUGGGGAAAGUAUUAUGUUACGCCGUUCGGAUCUGCACUUC: -1.19
CCUCAAGUCCUGUGCUACACAUCGUAUGUACCGAAUCGGCCGGGCCGGCCGGGAAAGUAUUAUGUUACGCCGUUCGGAUCUGCACUUCCA: 0.121
UGGGAGGUGGAUUUUGUUUAUUUUUUUAGCUCAUUUCCAAGGGUGGGAAUUUUUUUUUAAUAUGUGUCAUGAAUAAAGUUGUUUUUGAAA: 0.718
CUGUGCUACACAUCGUAUGUACCGAAUCGGGGAAAAAAGGGAAAAAAGGGGAAAAAAGGGGAAAGUAUUAUGUUACGCCGUUCGGAUCUG: 0.821

Set 2
Target: RNA binding protein fox-1 homolog 2, RRM domain, GST-SBP tag (RBFOX2, Homo sapiens, UniProt O43251-10, residues 100-194)
Technique: RNA Bind-n-Seq
Molecule type: RNA
Medium: in vitro
Concentration: 365 nM
Setting: natural RNA segment, single round, ends assumed
Relative to: no-protein control
Direction: higher = stronger binding
Measurement: RBNS enrichment (R)
Constant ends, left off below: GGGAGUUCUACAGUCCGACGAUC … UGGAAUUCUCGGGUGCCAA
Target sequence (chain): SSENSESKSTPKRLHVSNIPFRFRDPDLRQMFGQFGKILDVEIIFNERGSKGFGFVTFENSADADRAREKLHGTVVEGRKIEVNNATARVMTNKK
CCAUUGUGUGAAUCUCAAAUAUCUCAAGACACGCAGCCUAAGCAUCUCCAUUAUCCCGUGCACAUAAGCCAAUCCAGUUGAAUGUGGACAUUACGUUCAAGUGGGCCUCC: 0.487
AAGUUCACUACCAUUUGUCAAGAACCACUCUGUCCACAUCCUUUGACCUUUUGGCUUCCACGUCACCCAGAGUGUUAAAAUUUUUACUUAAUUCAUAGCUGUCCUUGAUU: 0.525
GGGUCAUGUAAAAUAUUAGACACUAAUAUUUUCAUAGAAAUUAGGCUGGAGAAAGAAGGAAGAAAUGGUUUUCUUAAAUACCUACAAAAAAGUUACUGUGGUAUCUAUGA: 0.42
AAUAUAUUUUAAAUCAUUUUAUUAAGAGAAAAAGUAAGCCAUUGAACUCUUGAGACUGCAUUGUCUUAUAUUCUGUAAGUUCAGAAAUGUAAGUGAAAAAGCCGUGACCA: 0.348
UGAAGUGUUUUUAAAAAUUAAAGAAGAAGAAAAGUAAAAGAGCUUACCACUGGCGCCUAUGCGAUCACUUCAUUUUUAGUUUGAGUUGCACCAGAAGCUGCCGUAGAAAG: 0.299
GUGGGGUUAAUAUAGCAUGUUAUCCUGUCUAUCUUUUAAAGAUUUCUGUAUAAGACUGUUGAGCAGUUUUUAAAAUAGUGUAGGAUAAUAUAAAAAGCAGAUAGAUGGCG: 19.9
CCUCAGAGCCUGGACUAGUUCUGAGCAUGUGUCCCUCUGUGUAUAGUGAGGAAGUGAGAGCAGAGGCUGGAAACUCAAUCCCAAGGGGAGAUCUGCCUUCCUACCCUCGG: 2.58
AAGUCAUUGUGACUAACACUUCAGUUCAUUGGCCCAUGAUCAUUUCAGAUUUUAACAGCUGUUACUGUUAUUGGAGAUCGGAGAGUUGGCCUGUUAGAAAUUAAAAAAUA: 0.298

Further values, each from its own experiment
P1: PafA, mature enzyme, eGFP fusion (Elizabethkingia meningoseptica, UniProt Q9KJX5); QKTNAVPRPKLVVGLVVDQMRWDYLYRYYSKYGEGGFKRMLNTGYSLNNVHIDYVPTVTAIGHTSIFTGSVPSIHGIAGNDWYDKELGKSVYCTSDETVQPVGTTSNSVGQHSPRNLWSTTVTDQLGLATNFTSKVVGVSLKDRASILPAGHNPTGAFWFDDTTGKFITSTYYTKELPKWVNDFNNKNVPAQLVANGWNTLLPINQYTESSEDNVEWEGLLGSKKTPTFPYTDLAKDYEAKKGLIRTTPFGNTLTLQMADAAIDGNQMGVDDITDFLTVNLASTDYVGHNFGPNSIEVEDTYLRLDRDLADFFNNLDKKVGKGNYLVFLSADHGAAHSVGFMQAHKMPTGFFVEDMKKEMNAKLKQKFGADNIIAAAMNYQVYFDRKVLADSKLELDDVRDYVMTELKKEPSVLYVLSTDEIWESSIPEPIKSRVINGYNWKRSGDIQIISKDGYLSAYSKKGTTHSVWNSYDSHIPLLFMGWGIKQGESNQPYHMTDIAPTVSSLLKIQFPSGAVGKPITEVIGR
P1 G103A  oxyanion analog dissociation constant (vanadate, free oxyanion; microfluidic competitive inhibition; in vitro, cell-free expressed; not given, derived from inhibition constants, unchanged parent 676 nM; lower = stronger binding): 634 nM
PhoQ, residues 284 288 289 292 302 303 HSYLQF  fold induction (PhoP, residues 12 14 15 18 19 NQAHL (Escherichia coli, UniProt P23836); Sort-seq, measured: YFP reporter; E. coli; PhoQ-PhoP variant library, with: 10 µM Mg2+; relative to: high Mg2+ state, higher = stronger signaling): 0.939

Excerpt of the above (set 2):
CCAUUGUGUGAAUCUCAAAUAUCUCAAGACACGCAGCCUAAGCAUCUCCAUUAUCCCGUGCACAUAAGCCAAUCCAGUUGAAUGUGGACAUUACGUUCAAGUGGGCCUCC: 0.487
AAUAUAUUUUAAAUCAUUUUAUUAAGAGAAAAAGUAAGCCAUUGAACUCUUGAGACUGCAUUGUCUUAUAUUCUGUAAGUUCAGAAAUGUAAGUGAAAAAGCCGUGACCA: 0.348
